# Measurements pooled from the literature.
# Numbered parts are unrelated; each lists some results of a single study. Substitutions count along the parent as printed.

# Study 1
# Target: PABPC1L2, full length, GST fusion (mouse, UniProt A0ABA7IW68)
# Method: RNAcompete
# Molecule type: RNA
# Matrix: in vitro
# Concentration: 20 nM
# Notes: 7-mer, probes averaged, single round
# Relative to: mean of 7-mers
# Direction: higher = stronger binding
# Target sequence (chain): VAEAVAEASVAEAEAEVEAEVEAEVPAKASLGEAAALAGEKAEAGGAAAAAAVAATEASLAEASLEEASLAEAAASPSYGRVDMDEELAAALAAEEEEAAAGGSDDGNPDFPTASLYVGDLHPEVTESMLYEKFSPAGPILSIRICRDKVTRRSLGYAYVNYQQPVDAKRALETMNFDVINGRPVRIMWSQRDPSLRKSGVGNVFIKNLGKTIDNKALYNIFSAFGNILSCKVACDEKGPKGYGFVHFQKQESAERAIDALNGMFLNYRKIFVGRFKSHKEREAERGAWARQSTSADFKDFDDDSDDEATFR
Oligonucleotide,7-mer Z-score
UAUUUCC,-0.369
CAGCCAA,-0.00108
GCUCAGA,0.0859
GUCCGGA,-0.179
UGGGUUU,-0.333
CGAGCAC,-0.0428

# Study 2
# Target: CCNF, cyclin fold, Cln2 fusion (human)
# Method: yeast growth competition, sequencing
# Matrix: yeast
# Notes: strong parent motif
# Relative to: not given
# Direction: higher = stronger binding
# Starting sequence: WEE1 docking peptide (human); HKTFRKLRLFDTP
Change,normalised enrichment score
R5P,1.2
R5V,1.12
D11Y,2.04
R8Y,4.76
K2G,2.82
T12W,2.51
T3C,1.95
K6Y,2.16

# Study 3
# Target: Sal-like protein 4, full length isoform A (SALL4, Homo sapiens, UniProt Q9UJQ4, residues 1-1053)
# UniProt Q9UJQ4, sequence (whole entry, looked up): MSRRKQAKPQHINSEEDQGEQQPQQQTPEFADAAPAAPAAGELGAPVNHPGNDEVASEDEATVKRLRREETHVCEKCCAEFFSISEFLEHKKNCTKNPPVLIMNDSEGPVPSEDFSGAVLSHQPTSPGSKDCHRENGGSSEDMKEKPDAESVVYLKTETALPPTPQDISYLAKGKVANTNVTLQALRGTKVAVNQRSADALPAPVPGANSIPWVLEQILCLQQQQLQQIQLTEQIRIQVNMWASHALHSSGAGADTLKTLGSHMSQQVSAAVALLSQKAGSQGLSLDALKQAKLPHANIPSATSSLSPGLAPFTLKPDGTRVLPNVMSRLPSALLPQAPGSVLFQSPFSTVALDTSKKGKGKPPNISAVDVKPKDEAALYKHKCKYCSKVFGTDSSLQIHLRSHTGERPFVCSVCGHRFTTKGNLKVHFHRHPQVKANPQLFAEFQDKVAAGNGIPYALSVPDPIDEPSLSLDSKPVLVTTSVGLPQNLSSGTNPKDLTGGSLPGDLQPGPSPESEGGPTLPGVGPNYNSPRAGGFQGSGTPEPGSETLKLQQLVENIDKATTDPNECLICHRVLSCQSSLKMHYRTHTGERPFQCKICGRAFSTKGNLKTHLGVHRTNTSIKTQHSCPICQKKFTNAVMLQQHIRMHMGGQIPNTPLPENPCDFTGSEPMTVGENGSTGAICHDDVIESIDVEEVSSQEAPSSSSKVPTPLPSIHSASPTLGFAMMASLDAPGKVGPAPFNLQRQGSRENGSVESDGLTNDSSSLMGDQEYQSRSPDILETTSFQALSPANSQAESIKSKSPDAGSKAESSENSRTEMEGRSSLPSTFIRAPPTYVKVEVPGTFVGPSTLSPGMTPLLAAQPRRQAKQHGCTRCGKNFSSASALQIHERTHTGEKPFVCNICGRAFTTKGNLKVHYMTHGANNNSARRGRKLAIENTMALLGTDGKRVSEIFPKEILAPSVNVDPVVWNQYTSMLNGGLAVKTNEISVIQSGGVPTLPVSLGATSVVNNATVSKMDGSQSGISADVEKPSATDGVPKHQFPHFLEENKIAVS
# Method: universal PBM
# Molecule type: double-stranded DNA, one strand shown
# Matrix: in vitro
# Concentration: 600 nM
# Notes: 8-mer, flanks averaged, mean of replicates
# Direction: higher = stronger binding
Oligonucleotide,E-score
GACACTTA,0.0602
TAGATTGA,0.163
CTTTGAGC,-0.237
ACTTTGAC,0.0582
GCCTCGTA,-0.0346
GGGAGTAC,-0.202
GAACAATA,0.29
CTCATGCA,0.119
TGGACAAA,0.0305

# Other studies, line by line
Substance,target,test,test system,conditions,scale,quantity,result
"PhoQ, residues 284 288 289 292 302 303 SLGVVW","PhoP, residues 12 14 15 18 19 LHSVW (Escherichia coli, UniProt P23836)","Sort-seq, item: YFP reporter",E. coli,"PhoQ-PhoP variant library, added: 10 µM Mg2+","relative to: high Mg2+ state, higher = stronger signaling",fold induction,5.45

# Repeated from above (study 3):
Oligonucleotide,E-score
CTTTGAGC,-0.237
ACTTTGAC,0.0582
GCCTCGTA,-0.0346
